Measured values pooled from the literature.
Protocols differ between the studies behind these lines. ± gives the spread as reported.

Compound | assay | system | conditions | scale | endpoint | value
COC(=O)c1ccc2c(c1)NC(=O)/C2=C(\Nc1ccc(N(C)C(=O)CN2CCN(C)CC2)cc1)c1ccccc1 | – | human, healthy, plasma | oral, 50 mg, with: ketoconazole 400 mg | baseline: alone | AUC(0-inf) ratio | 160%
O=C(NC[C@H]1CN(c2ccc(N3CCOCC3=O)cc2)C(=O)O1)c1ccc(Cl)s1 | – | human, mild renal impairment, plasma | oral, 10 mg, with: erythromycin at steady state | baseline: same subjects, compound alone | AUC(0-inf) increase | ~54%
NS(=O)(=O)OC[C@@H]1C[C@@H](n2ccc3c(N[C@H]4CCc5ccccc54)ncnc32)C[C@@H]1O | – | human | intravenous, 15 mg/m^2, with: itraconazole | baseline: with over without itraconazole | AUC(0-inf) ratio | 133%
[2H]C([2H])([2H])Oc1cc2c(cc1OC([2H])([2H])[2H])C1CC(=O)C(CC(C)C)CN1CC2 (centres unmarked) | geometric mean ratio, crossover, item: alpha-dihydrotetrabenazine | human, fasted, plasma | oral, 15 mg | baseline: compound over tetrabenazine 25 mg fasted | AUC(0-inf) ratio | 119%
CCCC[C@H](NC(C)=O)C(=O)N[C@H]1CCC(=O)NC[C@@H](C(=O)N[C@@H](Cc2c[nH]c3ccccc23)C(N)=O)NC(=O)[C@H](CCCNC(=N)N)NC(=O)[C@@H](Cc2ccccc2)NC(=O)[C@H](Cc2c[nH]cn2)NC1=O | – | healthy human, both sexes, plasma | subcutaneous, 1.0 mg once daily, day 7, geometric mean | – | AUC(0-inf) | 54.3 ng·h/mL
C=CC(=O)Nc1cc(Nc2ncc(C(=O)OC(C)C)c(-c3cn(C)c4ccccc34)n2)c(OC)cc1N(C)CCN(C)C | – | human, fasted | oral, 80 mg single dose, arithmetic mean | – | AUC(0-inf) | 308 ng·h/mL
CC(C)(C)OC[C@@H]1C(=O)NCCN1C(=O)C[C@H](N)Cc1cc(F)c(F)cc1F | – | human | 20 mg once daily, day 10 | – | AUC(0-inf) at steady state | 680 ± 78.1 ng·h/mL
CCOc1cc([C@@H](CS(C)(=O)=O)N2C(=O)c3cccc(NC(C)=O)c3C2=O)ccc1OC | – | healthy humans, plasma | 30 mg, with: multiple oral rifampicin doses | baseline: with rifampicin over alone | AUC(0-inf) ratio | 28%
Cc1ccc(NC(=O)c2ccc(CN3CCN(C)CC3)cc2)cc1Nc1nccc(-c2cncc(-c3oncc3C)c2)n1 | – | older healthy human adults, plasma | oral, 125 mg single dose, fed, mean | – | AUC(0-inf) | 110000 ng·h/mL
CO[C@H]1C[C@@H]2CC[C@@H](C)[C@@](O)(O2)C(=O)C(=O)N2CCCC[C@H]2C(=O)O[C@H]([C@H](C)C[C@@H]2CC[C@@H](O)[C@H](OC)C2)CC(=O)[C@H](C)/C=C(\C)[C@@H](O)[C@@H](OC)C(=O)[C@H](C)C[C@H](C)/C=C/C=C/C=C/1C | – | human, whole blood | oral, 20 mg, with: grapefruit juice | – | AUC(0-inf) | 2800 ng·h/mL
CCOc1c([C@H](C)n2nc(C)c3c(N)ncnc32)cc(Cl)c(F)c1[C@@H]1CNC(=O)C1 | – | healthy fasted humans, plasma | oral, 10 mg | – | AUC(0-inf) geometric mean | 7.46 µM·h
CC[C@H](C)[C@H](NC(=O)[C@H](Cc1ccccc1)NC(=O)[C@H](CCC(=O)O)NC(=O)[C@H](CCCCNC(=O)COCCOCCNC(=O)COCCOCCNC(=O)CC[C@H](NC(=O)CCCCCCCCCCCCCCCCC(=O)O)C(=O)O)NC(=O)[C@H](C)NC(=O)[C@H](C)NC(=O)[C@H](CCC(N)=O)NC(=O)CNC(=O)[C@H](CCC(=O)O)NC(=O)[C@H](CC(C)C)NC(=O)[C@H](Cc1ccc(O)cc1)NC(=O)[C@H](CO)NC(=O)[C@H](CO)NC(=O)[C@@H](NC(=O)[C@H](CC(=O)O)NC(=O)[C@H](CO)NC(=O)[C@@H](NC(=O)[C@H](Cc1ccccc1)NC(=O)[C@@H](NC(=O)CNC(=O)[C@H](CCC(=O)O)NC(=O)C(C)(C)NC(=O)[C@@H](N)Cc1cnc[nH]1)[C@@H](C)O)[C@@H](C)O)C(C)C)C(=O)N[C@@H](C)C(=O)N[C@@H](Cc1c[nH]c2ccccc12)C(=O)N[C@@H](CC(C)C)C(=O)N[C@H](C(=O)N[C@@H](CCCNC(=N)N)C(=O)NCC(=O)N[C@@H](CCCNC(=N)N)C(=O)NCC(=O)O)C(C)C | – | human, moderate hepatic impairment | subcutaneous, 0.5 mg single dose | baseline: impairment over normal function | AUC(0-inf) ratio | 1.02
CC(C)NC[C@@H](C(=O)N1CCN(c2ncnc3c2[C@H](C)C[C@H]3O)CC1)c1ccc(Cl)cc1 | – | human, mild hepatic impairment (Child-Pugh), plasma | oral, 100 mg single dose, geometric mean | – | AUC(0-inf) | 322 ng·h/mL
C=C(C)[C@@H]1CC[C@]2(NCCN3CCS(=O)(=O)CC3)CC[C@]3(C)[C@H](CC[C@@H]4[C@@]5(C)CC=C(C6=CC[C@@](CF)(C(=O)O)CC6)C(C)(C)[C@@H]5CC[C@]43C)[C@@H]12 | – | healthy human volunteers, plasma | oral, 200 mg, tablet, fasted state, mean | – | AUC(0-inf) | 15700 ng·h/mL

Excerpt of the above:
Compound | assay | system | conditions | scale | endpoint | value
CC(C)(C)OC[C@@H]1C(=O)NCCN1C(=O)C[C@H](N)Cc1cc(F)c(F)cc1F | – | human | 20 mg once daily, day 10 | – | AUC(0-inf) at steady state | 680 ± 78.1 ng·h/mL
CC(C)NC[C@@H](C(=O)N1CCN(c2ncnc3c2[C@H](C)C[C@H]3O)CC1)c1ccc(Cl)cc1 | – | human, mild hepatic impairment (Child-Pugh), plasma | oral, 100 mg single dose, geometric mean | – | AUC(0-inf) | 322 ng·h/mL
